# Published values collected from several papers.
# Every numbered part comes from another study and shows a few of its results, in no order.

# Block 1
# Target: Calcium/calmodulin-dependent protein kinase type II subunit alpha (CAMK2A, Homo sapiens, UniProt Q9UQM7)
# Sequence of UniProt Q9UQM7 (whole entry, looked up): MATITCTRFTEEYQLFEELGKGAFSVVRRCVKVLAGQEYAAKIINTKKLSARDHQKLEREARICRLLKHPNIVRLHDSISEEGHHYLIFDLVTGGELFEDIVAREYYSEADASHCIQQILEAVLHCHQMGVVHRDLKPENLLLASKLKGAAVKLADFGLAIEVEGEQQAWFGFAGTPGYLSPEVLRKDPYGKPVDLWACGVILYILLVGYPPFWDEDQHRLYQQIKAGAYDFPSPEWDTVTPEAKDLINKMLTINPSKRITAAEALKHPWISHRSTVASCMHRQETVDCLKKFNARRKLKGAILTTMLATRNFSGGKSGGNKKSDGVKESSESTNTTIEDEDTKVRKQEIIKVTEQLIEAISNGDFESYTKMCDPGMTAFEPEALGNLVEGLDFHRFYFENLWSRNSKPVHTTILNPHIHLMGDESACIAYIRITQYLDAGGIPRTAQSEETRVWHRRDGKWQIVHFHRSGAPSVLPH
# Read-out: enzyme activity
# Mode: inhibitor
# Concentration: 10 µM
Compound,inhibition [%]
OC[C@@H](O)[C@@H](O[C@H]1O[C@H](CO)[C@@H](O)[C@H](O)[C@H]1O)[C@H](O)[C@@H](O)CO,-18
C[C@]12CCC(=O)C[C@H]1CC[C@@H]1[C@@H]2[C@@H](O)C[C@@]2(C)[C@H]1CC[C@]2(O)C(=O)CO,-7
CCCCCCCCCCCCCCCCC(=O)O,-34
C[N+](C)(C)C[C@H](O)CC(=O)[O-],-10
O=C(O)/C=C\C(=O)O,9
NCCCCCC(O)(P(=O)(O)O)P(=O)(O)O,1
COc1cc([C@H]2OC[C@H]3[C@@H]2CO[C@@H]3c2ccc(O)c(OC)c2)ccc1O,18
CC(=O)c1ccccc1N,-11
CC(C)C1=CC(=O)[C@@](C)([C@H]2[C@H](O)C[C@@]3(C)[C@@H]4CC=C5[C@@H](CC[C@@H](O[C@@H]6O[C@H](CO)[C@@H](O)[C@H](O)[C@H]6O[C@@H]6O[C@@H](C)[C@H](O)[C@@H](O)[C@H]6O)C5(C)C)[C@]4(C)C(=O)C[C@]23C)O1,-14
CC(/C=C/C=C(\C)C(=O)OC1OC(COC2OC(CO)C(O)C(O)C2O)C(O)C(O)C1O)=C\C=C\C=C(C)\C=C\C=C(/C)C(=O)OC1OC(COC2OC(CO)C(O)C(O)C2O)C(O)C(O)C1O (centres unmarked),-23
CC(=O)NS(=O)(=O)c1ccc(NC(=O)c2ccccc2C(=O)O)cc1,4
CC(C)=CCOc1ccc2ccc(=O)oc2c1,-4
O=C(/C=C/c1ccc(O)c(O)c1)O[C@@H]1CC(C(=O)O)=C[C@@H](O)[C@H]1O,32
N[C@@H](Cc1ccc(O)c([N+](=O)[O-])c1)C(=O)O,-29
O=C1CCCCCCCCCCCCCCO1,-15
CC(=O)N[C@@H](C)C(=O)O,10
O=C(O)c1ccc(C(=O)O)o1,-6

# Block 2
# Target: 5-hydroxytryptamine receptor 1D (HTR1D, Homo sapiens, UniProt P28221)
# Sequence of UniProt P28221 (whole entry, looked up): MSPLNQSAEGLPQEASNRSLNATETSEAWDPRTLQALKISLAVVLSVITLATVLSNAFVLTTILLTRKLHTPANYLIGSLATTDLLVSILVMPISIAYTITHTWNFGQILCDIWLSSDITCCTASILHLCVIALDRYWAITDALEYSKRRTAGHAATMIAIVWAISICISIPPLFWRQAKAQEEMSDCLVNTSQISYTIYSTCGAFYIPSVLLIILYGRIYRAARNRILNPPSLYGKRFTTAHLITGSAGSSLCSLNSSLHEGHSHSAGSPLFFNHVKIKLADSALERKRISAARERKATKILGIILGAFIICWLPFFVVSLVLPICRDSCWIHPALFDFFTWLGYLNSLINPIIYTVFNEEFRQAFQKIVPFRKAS
# Read-out: ligand displacement
# Technique: radioligand
# Concentration: 10 µM
Compound,inhibition [%]
Cn1nc(C(F)(F)F)cc1-c1cnc(N2CCc3cc(S(=O)(=O)Nc4c(F)cc(Cl)cc4F)cc(N4CCCC4=O)c32)nc1,55.3
Cn1cncc1[C@@](O)(COc1ccc(C#N)cc1-c1ccc(OC(F)(F)F)cc1)c1ccc(C#N)cc1,6.65
CC(C)(C)OC(=O)N1CCCC1CNC1CCC(c2cc(F)ccc2F)(S(=O)(=O)c2ccc(Cl)cc2)CC1 (centres unmarked),61.4
CCOc1cc(N2C3COCC2CN(C(=O)[C@H]2C[C@H](O)CN2c2ccc(Cl)cc2)C3)ccc1Cl,-2.08
COCCOc1nc(-c2ccc(Cl)nc2)nc2c1CN(C(=O)c1ncn3ccccc13)CC2,8.09
COc1cccc(NC(=O)c2nc3scc(CN(C)Cc4ccccc4)c3c(=O)[nH]2)c1,-0.959
Nc1cnc(N2CCc3cc(S(=O)(=O)Nc4c(F)cc(Cl)cc4F)cc(N4CCCC4=O)c32)nc1,9.24
CC(=O)N1CCC(c2ccc(C(=O)NC3=NCCN3)cc2C(F)(F)F)CC1,9.64
COc1cc(-c2cn(C3CCc4ccccc4N(CC(F)(F)F)C3=O)nn2)ccc1-n1ccc(C)n1 (centres unmarked),11.3
C[C@@H]1CN(c2cc(-c3n[nH]c4ccc(OC5(C)CC5)cc34)ncn2)C[C@H](C)O1,-7.94
CC(C)(O)c1cncc(-c2nc3ccc(F)cc3n2C2CC2)c1,0.75
Cc1cc(Nc2nccc(C)n2)cc(-c2cnc([C@@]3(O)CC[C@H](C(=O)O)C(C)(C)C3)s2)c1,2.65
CN(c1ccnc(CNc2nc(Nc3ccc4c(c3)CC(=O)N4)ncc2C(F)(F)F)n1)S(C)(=O)=O,0.19
Cc1cc(-n2nc(Cc3cc(F)cc(C(F)(F)F)c3)nc2C)ccc1C(N)=O,12.5
CC1=C(C#N)C(c2ccc3c(c2)c(NC(=O)c2ccccc2C)nn3C)C(C#N)=C(C)N1,2.45
Cc1c(NC(=O)c2cc(C(N)=O)nc3cc(F)ccc23)c(C(F)(F)F)nn1Cc1ccc(C#N)cc1,6.11
C[C@@H](NC(=O)Nc1cc2[nH]ncc2c(CO)n1)c1ccccc1,1.59
CS(=O)(=O)NCC[C@H](NC(=O)c1cncc2c1cnn2-c1ccc(F)cc1)c1ccnc(S(C)(=O)=O)c1,38.9
C[C@@H](c1cccc(C#N)c1)n1cc(Cl)cc(C(N)=O)c1=N,3.77
CNC(=O)c1ccc(Nc2ncc(C(F)(F)F)c(NCc3nccnc3N(C)S(C)(=O)=O)n2)cc1,-15.2

# Block 3
# Target: Serine/threonine-protein kinase MARK1 (MARK1, Homo sapiens, UniProt Q9P0L2)
# Sequence of UniProt Q9P0L2 (whole entry, looked up): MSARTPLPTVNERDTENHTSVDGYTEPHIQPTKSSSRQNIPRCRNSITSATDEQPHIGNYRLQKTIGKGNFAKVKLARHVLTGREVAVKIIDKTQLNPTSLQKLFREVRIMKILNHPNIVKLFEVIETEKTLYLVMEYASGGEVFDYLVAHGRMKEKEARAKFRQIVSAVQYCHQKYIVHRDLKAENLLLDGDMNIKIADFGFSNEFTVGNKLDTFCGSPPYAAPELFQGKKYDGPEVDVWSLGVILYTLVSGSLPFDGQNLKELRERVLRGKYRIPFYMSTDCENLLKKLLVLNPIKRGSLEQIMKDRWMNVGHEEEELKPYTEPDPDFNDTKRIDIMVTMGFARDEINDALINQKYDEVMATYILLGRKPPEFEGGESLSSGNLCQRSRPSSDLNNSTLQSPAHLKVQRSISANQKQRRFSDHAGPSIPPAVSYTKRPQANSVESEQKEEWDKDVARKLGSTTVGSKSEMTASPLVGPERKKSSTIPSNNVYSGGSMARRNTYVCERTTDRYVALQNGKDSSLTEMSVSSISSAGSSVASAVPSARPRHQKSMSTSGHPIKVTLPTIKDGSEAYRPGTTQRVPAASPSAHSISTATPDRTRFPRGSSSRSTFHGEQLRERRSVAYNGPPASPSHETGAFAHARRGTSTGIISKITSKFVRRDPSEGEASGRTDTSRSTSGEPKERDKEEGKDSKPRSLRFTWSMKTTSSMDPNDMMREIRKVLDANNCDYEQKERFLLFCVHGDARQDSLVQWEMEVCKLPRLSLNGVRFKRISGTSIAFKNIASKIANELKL
# Read-out: enzyme activity
# Mode: inhibitor
# Concentration: 0.5 µM
# Baseline: control
Compound,remaining activity [%]
N#Cc1cnc2cnc(NCc3cccnc3)cc2c1Nc1ccc(F)c(Cl)c1,91.6
c1ccc2c(-c3ccncc3)c[nH]c2c1,94.5
O=C1NC(=O)c2c1c1c3ccccc3[nH]c1c1[nH]c3cc(Br)ccc3c21,42
O=Nc1c(-c2c(O)[nH]c3cc(Br)ccc23)[nH]c2ccccc12,64.2
Cc1cc(Nc2cc(N3CCN(C)CC3)nc(Sc3ccc(NC(=O)C4CC4)cc3)n2)[nH]n1,114
COc1ccc(COc2ccc(Cc3cnc(N)nc3N)cc2OC)cc1,103
CCCNC(=O)Nc1ccc(Oc2ncnc3cc(OC)c(OC)cc23)cc1Cl,97.6
Oc1cccc(-c2nc(N3CCOCC3)c3oc4ncccc4c3n2)c1,97.6
CCCCc1c(-c2ccc(OC)cc2)[nH]c2nccnc12,92.9
CN1CCN(c2ccc3nc(-c4c(N)c5c(F)cccc5[nH]c4=O)[nH]c3c2)CC1,34.8
COc1cccc(-c2cc(=O)c3ccccc3o2)c1N,96.9
c1ccc(-c2n[nH]c3c2oc2ccccc23)cc1,98.6
Cc1ccc(S(=O)(=O)/C=C/C#N)cc1,102
O=C1Cc2c([nH]c3ccc(Br)cc23)-c2ccccc2N1,88.3
O=C(c1cc2cc(O)ccc2[nH]1)c1cc2cc(O)ccc2[nH]1,66.3
O=C1NC(=O)c2c1c1c3ccccc3[nH]c1n1cncc21,36.7
O=C1Nc2ccc(Br)cc2/C1=C/c1cc2c([nH]1)CCCC2,69
O=C1Nc2ccccc2/C1=C\c1c(Cl)[nH]c2ccccc12,96
COc1ccc2c(c1)c(C1=C(c3c[nH]c4ccccc34)C(=O)NC1=O)cn2CCCN(C)C,93.2
O=c1cc(N2CCOCC2)oc2c(-c3ccccc3)cccc12,100
CN(C)S(=O)(=O)c1ccc2c(c1)/C(=C/c1cc3c([nH]1)CCCC3)C(=O)N2,54.6

# Block 4
# Target: Diamine acetyltransferase 1 (Homo sapiens, UniProt P21673)
# Mode: inhibitor
# Concentration: 10 µM
# Baseline: control
# Construct (P21673 1-171): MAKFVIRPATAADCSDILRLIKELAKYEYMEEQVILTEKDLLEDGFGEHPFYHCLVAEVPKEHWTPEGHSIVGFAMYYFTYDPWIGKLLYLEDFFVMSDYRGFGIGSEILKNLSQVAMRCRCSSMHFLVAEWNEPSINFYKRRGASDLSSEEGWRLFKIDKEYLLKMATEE
SMILES,remaining activity
CCCCC/C=C/C=C/C=O,93.5%
COc1ccc(-c2cc(=O)c3c(O)c(OC)c(O)c(OC)c3o2)cc1,104%
CN(CC(=O)O)C(=N)N,104%
C[C@@H]1C(=O)O[C@H]2C[C@]34[C@@H]5OC(=O)[C@]3(O[C@@H]3OC(=O)[C@H](O)[C@@]34[C@H](C(C)(C)C)[C@H]5O)[C@]21O,77.4%
COc1cc(/C=C/C(=O)CC(=O)/C=C/c2ccc(O)cc2)ccc1O,96.4%
CC1(C)CC[C@]2(C)CC[C@]3(C)C(=CC[C@@H]4[C@@]5(C)CC[C@H](O)C(C)(C)[C@@H]5CC[C@]43C)[C@@H]2C1,107%
CCCCCCCC/C=C\CCCCCCCC(=O)O[C@H](COC(=O)CCCCCCCCCCCCCCC)COP(=O)([O-])OCC[N+](C)(C)C,104%
CC1(C)[C@H]2CC[C@]1(C)[C@H](O)C2,96.1%
CC[C@H](/C=C/[C@@H](C)[C@H]1CC[C@H]2[C@@H]3CC=C4C[C@@H](O)CC[C@]4(C)[C@H]3CC[C@]12C)C(C)C,89.4%
O=C(/C=C/c1ccc(O)c(O)c1)c1ccc(O)cc1O,77.7%
CCOC(=O)CC(O)(CC(=O)OCC)C(=O)OCC,85.9%
C[C@]1(O)C[C@@H](O)[C@@H]2C=CO[C@@H](O[C@@H]3O[C@H](CO)[C@@H](O)[C@H](O)[C@H]3O)[C@@H]21,101%
Cc1cc(O)c2c(c1)Cc1cc(O)cc(O)c1C2=O,81.2%
COc1cc(/C=C/C(=O)CC(=O)/C=C/c2ccc(O)c(OC)c2)ccc1O,109%
CC(=O)OC/C=C/c1ccccc1,91%
COc1ccc([C@@H]2CC(=O)c3c(O)cc(O)cc3O2)cc1O,100%

# Some of these lines once more (block 2):
Compound,inhibition [%]
COc1cc(-c2cn(C3CCc4ccccc4N(CC(F)(F)F)C3=O)nn2)ccc1-n1ccc(C)n1 (centres unmarked),11.3
Cc1cc(Nc2nccc(C)n2)cc(-c2cnc([C@@]3(O)CC[C@H](C(=O)O)C(C)(C)C3)s2)c1,2.65
C[C@@H]1CN(c2cc(-c3n[nH]c4ccc(OC5(C)CC5)cc34)ncn2)C[C@H](C)O1,-7.94
Cn1nc(C(F)(F)F)cc1-c1cnc(N2CCc3cc(S(=O)(=O)Nc4c(F)cc(Cl)cc4F)cc(N4CCCC4=O)c32)nc1,55.3
CCOc1cc(N2C3COCC2CN(C(=O)[C@H]2C[C@H](O)CN2c2ccc(Cl)cc2)C3)ccc1Cl,-2.08
Cc1cc(-n2nc(Cc3cc(F)cc(C(F)(F)F)c3)nc2C)ccc1C(N)=O,12.5
CN(c1ccnc(CNc2nc(Nc3ccc4c(c3)CC(=O)N4)ncc2C(F)(F)F)n1)S(C)(=O)=O,0.19
CS(=O)(=O)NCC[C@H](NC(=O)c1cncc2c1cnn2-c1ccc(F)cc1)c1ccnc(S(C)(=O)=O)c1,38.9
CC(C)(C)OC(=O)N1CCCC1CNC1CCC(c2cc(F)ccc2F)(S(=O)(=O)c2ccc(Cl)cc2)CC1 (centres unmarked),61.4
CC(=O)N1CCC(c2ccc(C(=O)NC3=NCCN3)cc2C(F)(F)F)CC1,9.64
CC(C)(O)c1cncc(-c2nc3ccc(F)cc3n2C2CC2)c1,0.75
C[C@@H](NC(=O)Nc1cc2[nH]ncc2c(CO)n1)c1ccccc1,1.59
